Measured values pooled from the literature.
Parts stem from different laboratories: compare values within a part only.

Sample 1 — technique: RNA Bind-n-Seq; molecule type: RNA; medium: in vitro; tested at: 365 nM; baseline: no-protein control; reading: higher = stronger binding; measurement: RBNS enrichment (R)
Target: RNA binding protein fox-1 homolog 2, RRM domain, GST-SBP tag (RBFOX2, Homo sapiens, UniProt O43251-10, residues 100-194)
Setting: natural RNA segment, single round, ends assumed
All sequences stand within: GGGAGUUCUACAGUCCGACGAUC … UGGAAUUCUCGGGUGCCAA
Target sequence (chain): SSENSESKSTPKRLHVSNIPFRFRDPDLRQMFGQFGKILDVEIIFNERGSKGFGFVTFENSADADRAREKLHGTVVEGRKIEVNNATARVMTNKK
AAAUGCAGCUCCUUUCUGUGCUGGGCUGGAAAGACUGGAGCGCUGCCCCGAGGAUCUACGGCCUUGGUUGGGAGUUGUGCUCCUUGCAGCAGGGAGUGAUGAAAUGGUGA: 0.654
CUCCCACUGCACACAGGGUGGUGGCACAUUAUCCCUCUGGGGGGUGGGGACGCCUGUUGUUUUGGCUCAAUUUGGGUUUGUUGGUCACAUGGAGCUCUUCCAUUUCGUUU: 1.09
AGACUUGUUACAUAGAGGGAAAAUGGACUGGGAUAGAGGACAGACUGAUAGUUUCUUUCUUUCAUAUCACAUGUAUAGAGAAAUAAUUAUAUCAGAAACUCACAAACCUA: 0.587
AGUGCUGUUUGCUUUUAGGUCUGGGUGCUCAGGGGCCCUCACUGAUACAAGAGCCCAUCUCUUCUCCUCACCUCACUGGAGCCACAGAAGCCAGGCAGCAGCUACAGGAG: 0.434
UGAGCAAUGAGCAAAGCAAUAUCAUAUCCAUGUUUAUGUCCCUCCUCCUUCCCUUGCUCCUCCUCUGGAGAAGCACUAAUUACACAGGGGAUAGCAAAGUAGCACUUUAC: 0.321
CGGGAACUUGUUAGAAAUGCACAUUCUCAGGCCACUCCCUAGACCUACUGAAUCAGAAACCCUGGGGUUGGAGCUCAGCAAUUACCCUGCAGGUAAUUCUGAUGCAUGCU: 3
ACAUGACUCUGGAAGGCGACGACCUCAUCCUAGAGAUUGAUGAUCUUACUCCAGCCUGGCAGCCUGGCCGACCCUACCCCAAGCCUCUCAACAGAAGCUGUGCAGCCAGG: 0.338
ACACAGAAAAACAGAAACUGAGUGUGAGAGUUGUGAAAUACAAGGAAAUGCAGUAAAGCCAGGGAAUUUACAAUAACAUUUCCGUUUCCAUCAUUGAAUAAGUCUUAUUC: 0.542
CAUCCUCCAAUUGUGUUUAUUUACAUGAGAAGAUCAUACAAAAGCCCUCCGCUCUAGUCCUAGCAGGGCAGCCAUGAGCCGAGGGGAGGUGGAGAAGGCUUGUGCAGGUA: 0.418
UCAUAUAUACGUUCAUCUUUCAAGUCAGAGCAAUGAGUUGGGAAAAGAGGUGGCAUUUCUGAUCGGAUAAUGGAAUACUCUCAUUUAUUUUAUGACAUUCUCUGUCUACU: 0.237
UGGGGGGUGGGAGAGCGAUUACUCUGUGUUUAGGUUUGUCACGCACAUUCUUUGCAUCUGUAUUGUACCAGCUUUAUAGCACUGUUUCAUGCCAAAGUUCUGAUGACGUA: 1.06
UGAUAUAUAUCACACCCAGGUAUCACUGUGCUGUCCUUUGCUGUCAGAUUUAGAAAUGUUUUUAAGAGCUAUGUGAAAACAGACAAUAUUAGUUUAGGUCGGGAACUGAG: 0.76

Sample 2 — technique: RNAcompete; molecule type: RNA; medium: in vitro; tested at: 20 nM; setting: 7-mer, probes averaged, single round; baseline: mean of 7-mers; reading: higher = stronger binding; measurement: 7-mer Z-score
Target: PABPC1L2, full length, GST fusion (mouse, UniProt A0ABA7IW68)
Target sequence (chain): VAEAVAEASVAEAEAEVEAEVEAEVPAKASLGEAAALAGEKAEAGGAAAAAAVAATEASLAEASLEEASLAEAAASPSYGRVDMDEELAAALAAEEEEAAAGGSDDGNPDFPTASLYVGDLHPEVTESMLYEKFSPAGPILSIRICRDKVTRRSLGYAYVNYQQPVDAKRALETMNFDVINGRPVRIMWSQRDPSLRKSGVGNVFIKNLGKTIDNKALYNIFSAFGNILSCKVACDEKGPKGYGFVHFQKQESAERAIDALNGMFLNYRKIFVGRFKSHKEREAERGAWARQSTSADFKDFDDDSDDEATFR
CCUAACA: -0.193
CAUCUCG: -0.349
UAUCCCU: -0.331
AGGGAAA: 0.91
AAAAAGG: 13.5
ACGUUUA: -0.257
UCGGCCG: -0.157
CUUUGCA: -0.338
GCUAUUC: -0.315
CCGCGCC: -0.362
CGACUGA: 0.113
GCGGACU: 0.0968
UACAGGU: -0.0554
UCUUGAA: -0.168
UGGAACU: -0.15
GGUAAAC: 0.213
GGAUACG: 0.00979
GAGAAUG: 0.0315
UAUGCCC: -0.329
AACUCAC: -0.0917
UUCGGAU: -0.291
UGUUGCA: -0.142
CUAGCAA: 0.0297

Sample 3 — technique: protein binding microarray; molecule type: double-stranded DNA, one strand shown; medium: in vitro; tested at: not given; baseline: not given; reading: higher = stronger binding; measurement: E-score
Target: Histone acetyltransferase KAT6A, winged helix 1, GST fusion (KAT6A, Homo sapiens, UniProt Q92794, residues 1-85)
Setting: 8-mer, flanks averaged, mean of 2 arrays, mostly near background
Target sequence (chain): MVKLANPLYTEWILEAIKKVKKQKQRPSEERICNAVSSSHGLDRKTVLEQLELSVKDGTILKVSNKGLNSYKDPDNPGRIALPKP
AATAATCA: 0.0383
AATTACAT: -0.099
ACTTTAAT: -0.129
CCCATGCG: 0.104
GGTGCATA: -0.117
TCGCTACA: -0.0171
CCGTGTAA: 0.11
CGGACATC: 0.161
CACAGCAC: 0.0119
CATTCGTA: -0.155
ATACAATA: 0.0279
AATAAAGT: -0.163
CCCCAATC: -0.174
AAATGGGA: -0.289
ACACCGTG: 0.256
AGCCGCCT: 0.239
CTAAATGC: -0.0542
AGGTGGAA: -0.179
ATTGCCTG: -0.148

Sample 4 — technique: protein-binding microarray; molecule type: double-stranded DNA, one strand shown; medium: in vitro; tested at: not given; reading: higher = stronger binding; measurement: E-score
Target: Max-binding protein MNT, bHLH-zipper, MAX partner unstated (MNT, Homo sapiens, UniProt Q99583, residues 220-300)
Setting: k-mer, scored over probes, only values ≥0.25
Construct (chain): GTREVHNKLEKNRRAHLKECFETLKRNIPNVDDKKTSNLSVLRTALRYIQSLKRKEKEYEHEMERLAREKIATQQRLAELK
ATGCGGCG: 0.283
CCCACCCC: 0.429
CGTGTTCA: 0.39
CGCGGCAC: 0.277
GTGGCCAC: 0.369
CGTGCGAG: 0.34
CACGTTGA: 0.435
GCACACGA: 0.298
ACGTGTAC: 0.444
CACGCTTC: 0.389
CATGTCAC: 0.343
GCACCCAC: 0.359
CATGCTTA: 0.373
CATGAGGA: 0.401
ATATCACG: 0.285
ACGTGTTG: 0.404
AGCATGCT: 0.42
ACGCTACG: 0.339

Sample 5 — technique: RNA Bind-n-Seq; molecule type: RNA; medium: in vitro; tested at: not given; setting: RNA with constant flanks, ends assumed; baseline: input RNA pool; reading: higher = stronger binding; measurement: bound/input enrichment
Target: RING finger protein unkempt homolog, zinc fingers 1-6, GST-SBP tag (UNK, Homo sapiens, UniProt Q9C0B0, residues 30-357)
Sequence of UniProt Q9C0B0 (30-357, looked up): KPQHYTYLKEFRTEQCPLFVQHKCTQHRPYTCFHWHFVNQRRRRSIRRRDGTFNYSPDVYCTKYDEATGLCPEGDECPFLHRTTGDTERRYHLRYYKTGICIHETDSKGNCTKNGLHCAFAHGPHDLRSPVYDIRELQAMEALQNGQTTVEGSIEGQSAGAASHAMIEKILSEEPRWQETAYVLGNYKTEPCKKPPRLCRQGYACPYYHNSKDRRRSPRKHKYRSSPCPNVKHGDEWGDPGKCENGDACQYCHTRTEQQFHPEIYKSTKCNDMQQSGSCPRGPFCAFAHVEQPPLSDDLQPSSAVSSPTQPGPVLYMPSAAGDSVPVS
All sequences stand within: GGGAGUUCUACAGUCCGACGAUC … CAACAGAGGAUUGAGCAUCA
AGAAUGUCCCACUUGCUGUCUCUUAGAGGCUGAGCUUCAUUUCUAUGAGCAAAGAGCUCAUUCCGCAAUGUAGUUAUUUCAGUAUUUAUUUCUAUUAUGGAAUCCCUGGGGUUCAGAAUG: 0.745 ratio
AGUGAAAAUAUUUCUGCAGCUAUUCAAGCUAAUGGUGAGAUGGUUACAAAGCAACCAUUGAUCCGAAGUAUGCGGACAGUAAAAAGGGAAACUUUAAAGUUAAUAUCUGGUUGGGUGAGC: 0.298 ratio
AGGCUCAUCCAGCCAUAUAUCCAUAACUACUCCUGGCUGCUCUUUGCUGCCCUGGCUCUCUACCGCGCCCACCUGGCCAGUGCAGAGGAUGUGGAUGGGGAGAAGCUGGACCCCCAGACG: 0.228 ratio
AAACUGACAGAAGUUGACAAUUAUCAUUUUUACUCAUCUAUACCCUCAAUGGAAAAAGAAGCCGGUAACUGUAGUCCACAUUUUCUUAAUGCUUUUGAGGAUUCCUUCAGCAGCAUCCUC: 0.448 ratio
UUUCCCGGAAACAGUACCCAGUACAACAUCCUAGAAGGACUGGAGAAACUCAAACAUCCCGAUUUCCUAAAGCAGCCACUGGCCACCCAAAAAGAUCUCACUGGCCAGGUGCCCACCCCC: 0.237 ratio
CCUCCUUAUGCAAACGGUGACCCUCAUGUUGGACAUGCUUUAAAUAAGAUUUUGAAAGACACCGCCAAUCGAUUCCAUAUGAUGAAUGGCUCCAAAAUACAUUUUGUGCCCGGCUGGGAU: 0.222 ratio
AUAGAACCAAGUAGCAAUAAAGAUGAUGAUUUUCUUGAAAAAAAUGGAGCUGAUGAAAAAUCCGAGCAAAUUCAGAGUAAAGACUCAUUGGAUGAGAAAAAUAAAGCUGAUAAUAAUAUU: 6.35 ratio

Sample 6 — technique: universal PBM; molecule type: double-stranded DNA, one strand shown; medium: in vitro; tested at: 600 nM; reading: higher = stronger binding; measurement: E-score
Target: Sal-like protein 4, full length isoform A (SALL4, Homo sapiens, UniProt Q9UJQ4, residues 1-1053)
Sequence of UniProt Q9UJQ4 (whole entry, looked up): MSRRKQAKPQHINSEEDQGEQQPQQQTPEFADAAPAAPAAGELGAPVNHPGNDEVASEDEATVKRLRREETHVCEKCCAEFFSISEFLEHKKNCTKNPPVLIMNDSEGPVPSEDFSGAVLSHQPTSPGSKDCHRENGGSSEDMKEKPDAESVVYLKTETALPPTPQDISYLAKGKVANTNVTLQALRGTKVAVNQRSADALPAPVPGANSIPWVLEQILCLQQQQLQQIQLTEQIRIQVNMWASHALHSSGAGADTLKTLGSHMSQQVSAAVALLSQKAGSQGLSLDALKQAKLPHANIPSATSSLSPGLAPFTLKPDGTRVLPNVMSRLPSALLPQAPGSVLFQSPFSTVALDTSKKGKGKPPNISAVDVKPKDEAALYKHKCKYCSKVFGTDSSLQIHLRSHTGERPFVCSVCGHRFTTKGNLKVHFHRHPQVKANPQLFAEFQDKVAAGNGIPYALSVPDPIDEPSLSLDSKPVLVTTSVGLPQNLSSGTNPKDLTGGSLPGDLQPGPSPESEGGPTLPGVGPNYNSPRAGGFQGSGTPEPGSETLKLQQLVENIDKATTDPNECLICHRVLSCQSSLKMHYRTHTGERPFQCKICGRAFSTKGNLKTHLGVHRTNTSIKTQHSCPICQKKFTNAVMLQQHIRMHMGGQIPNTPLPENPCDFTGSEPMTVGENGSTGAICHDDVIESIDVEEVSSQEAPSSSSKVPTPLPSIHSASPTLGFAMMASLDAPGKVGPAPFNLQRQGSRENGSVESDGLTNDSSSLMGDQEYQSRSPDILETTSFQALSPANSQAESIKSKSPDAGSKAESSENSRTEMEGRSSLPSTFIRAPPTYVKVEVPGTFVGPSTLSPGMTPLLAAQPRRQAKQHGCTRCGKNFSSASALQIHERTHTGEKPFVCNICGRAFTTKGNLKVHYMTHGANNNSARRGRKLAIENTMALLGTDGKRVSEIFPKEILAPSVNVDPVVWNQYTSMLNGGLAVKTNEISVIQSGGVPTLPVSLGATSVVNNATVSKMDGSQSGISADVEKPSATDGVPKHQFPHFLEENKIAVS
Setting: 8-mer, flanks averaged, mean of replicates
AAACCTTC: -0.112
GTACATCA: 0.153
CTGATTGC: -0.0284
ATCAGCGA: -0.0341
ATGCGACG: -0.11
CTGGACGC: -0.278
ACCGTAAT: 0.138
ACCACCGC: -0.273
GAGATATC: 0.0674
CACGGCGG: -0.234
AGGGCCTC: -0.313
AAAAGGGG: -0.136
ATTTCTTC: 0.283
AGGCGCTA: -0.0452
AATCTCCG: -0.171
GGCCGCAC: -0.268
AGCTCCTC: -0.207
AACTGCGA: -0.17
AGACTTAG: -0.0481

Sample 7 — technique: RNA Bind-n-Seq; molecule type: RNA; medium: in vitro; tested at: 20 nM; setting: 6-mer, flanks averaged, single round; added: 150 mM LiCl; baseline: input library; reading: higher = stronger binding; measurement: 6-mer enrichment (R)
Target: TAR DNA-binding protein 43, full length, His tag (TARDBP, Homo sapiens, UniProt Q13148, residues 1-414)
AACAUC: 0.805
GUAACU: 0.882
CAGCCU: 0.895
AGACUU: 0.819
GAUAUU: 0.932
UAGGAU: 0.901
UUAGCU: 0.923
AUGUAG: 1.07
UUUGUC: 1.1
UAACAC: 0.852
GUGCUA: 1.01
UCUCCA: 0.912
CCUUAG: 0.915
AAACGU: 0.837
CUCGUU: 0.872
GCGACU: 0.897
GGUUCG: 1.01
UUCCCC: 1.18
GAGUAC: 0.9

For quick reference, copied from above (sample 7):
AACAUC: 0.805
GUAACU: 0.882
CAGCCU: 0.895
AGACUU: 0.819
GAUAUU: 0.932
UAGGAU: 0.901
UUAGCU: 0.923
AUGUAG: 1.07
UUUGUC: 1.1
UAACAC: 0.852
